Measurements from different studies.
Every numbered part comes from another study and shows a few of its results, in no order. Positions count from the first letter of the parent shown.

Block 1
Target: ABI1, truncated, D143A, DHFR fusion (Arabidopsis thaliana)
Method: DHFR PCA, deep sequencing
Sample: yeast
Notes: methotrexate growth selection, single substitutions
Added: (+)-ABA 710 µM
Reference: wild-type fitted maximum
Reading: higher = stronger binding
Starting sequence: PYL1, truncated, DHFR fusion (Arabidopsis thaliana); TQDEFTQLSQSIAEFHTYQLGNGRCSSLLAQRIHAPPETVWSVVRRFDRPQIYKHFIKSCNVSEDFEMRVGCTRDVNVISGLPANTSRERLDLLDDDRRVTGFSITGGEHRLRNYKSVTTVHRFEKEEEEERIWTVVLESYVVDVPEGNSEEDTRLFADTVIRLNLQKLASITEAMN; partner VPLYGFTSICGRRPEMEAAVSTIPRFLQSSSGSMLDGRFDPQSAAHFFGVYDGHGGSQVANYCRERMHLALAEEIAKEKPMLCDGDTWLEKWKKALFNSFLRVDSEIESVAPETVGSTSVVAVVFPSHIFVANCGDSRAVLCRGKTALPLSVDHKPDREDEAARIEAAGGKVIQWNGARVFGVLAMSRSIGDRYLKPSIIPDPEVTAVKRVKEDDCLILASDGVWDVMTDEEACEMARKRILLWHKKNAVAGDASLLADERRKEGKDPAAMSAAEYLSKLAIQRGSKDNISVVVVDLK
| Substitution | relative binding score |
| --- | --- |
| D153V | 29.8% |
| V70I | 101% |
| Q167M | 96.3% |
| H122N | 92.9% |
| W134C | 110% |
| F15T | 70.9% |
| S140C | 8.4% |
| E131A | 111% |
| L28P | 2.27% |
| G102M | 89.3% |

Block 2
Target: Centromere-binding protein 1, full length, His-tagged (CBF1, Saccharomyces cerevisiae, UniProt P17106, residues 1-351)
UniProt P17106, sequence (whole entry, looked up): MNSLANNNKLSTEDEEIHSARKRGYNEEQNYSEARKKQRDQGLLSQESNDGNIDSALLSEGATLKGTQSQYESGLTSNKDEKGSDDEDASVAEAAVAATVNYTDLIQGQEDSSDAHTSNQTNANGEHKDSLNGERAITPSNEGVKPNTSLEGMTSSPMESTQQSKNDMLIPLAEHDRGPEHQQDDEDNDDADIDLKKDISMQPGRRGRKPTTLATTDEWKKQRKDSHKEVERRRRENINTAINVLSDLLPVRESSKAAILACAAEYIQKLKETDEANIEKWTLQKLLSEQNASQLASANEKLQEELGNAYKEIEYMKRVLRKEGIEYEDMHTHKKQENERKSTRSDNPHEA
Method: competition protein-binding microarray
Molecule type: double-stranded DNA, one strand shown
Sample: in vitro
Concentration: 2 µM
Notes: whole 60-bp probe, lowest competitor level
Added: Pho4 competitor, 0.05 µM
Reading: higher = stronger binding
Constant ends, left off below: … GTCTTGATTCGCTTGACGCTGCTG
| Sequence | fluorescence intensity [a.u.] |
| --- | --- |
| CGTCCTAGTGATTGGAAAGTGGGTGCCATGAGGAAG | 76.2 |
| CATGAGAGCCATTTGCACGTTTACCGTTGAATTCCG | 112 |
| AAGCAACAACACCGACCCGTGCCAGCGACATCTGCT | 80.5 |
| AGCCAGCATTGTTGTCATGCGAGATGTCTAAGAAAA | 73.8 |
| GGACACTTTTCCCGTCACGTGGAACCGGCTTACAAG | 3580 |
| AGCACCCAATTGGGCCATGTGTGTTTAACGCCGGGC | 72 |
| AAAAGAGCGCAAGTACACATGCGATGCAAGGGCGGC | 64.8 |
| GCAACACTAGAGTCCCACGTGGAAGCTGGGGTACCC | 341 |
| GTCTTGTCTCATTGGTCCGTGGGTGTCCCCACTTCA | 89.1 |
| CTTCTGTAAATTTGATATGTGGGTGGACGCGCCCCG | 86.1 |
| CCACCGTTTGAGAGTGGTGTGACAGGACGCCCAAGA | 73.6 |
| CGTCCTAGTGATTGTCGAGTGGGTGCCATGAGGAAG | 91.4 |
| ATAACCACTAAATTCAAAAACACTTATTTTCAATAT | 114 |
| CATACCCAACCTTGATGGGTGGGTGAAGATATTTGT | 67 |
| CGGGGTTAAGTTTGACTTGTGGGTGGCTTGCAGCAG | 74.5 |
| TGTGTCCGGAGAAACCTCGTGCGGAAAACAGCGCAA | 94.4 |
| CTTTCCCGATCTTGACATGTGGGTGTAGCACATTTG | 83.4 |
| TCTCTCTGCTGATTGGACGTGGGTACGTACTATTTC | 67.1 |

Block 3
Target: Histone acetyltransferase KAT6A, winged helix 2, GST fusion (KAT6A, Homo sapiens, UniProt Q92794, residues 85-181)
Method: protein binding microarray
Molecule type: double-stranded DNA, one strand shown
Sample: in vitro
Concentration: not given
Notes: 8-mer, flanks averaged, mean of 2 arrays, mostly near background
Reference: not given
Reading: higher = stronger binding
Target sequence (chain): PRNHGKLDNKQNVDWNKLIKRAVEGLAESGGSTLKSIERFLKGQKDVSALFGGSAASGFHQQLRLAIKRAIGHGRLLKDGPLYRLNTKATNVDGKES
| Sequence | E-score |
| --- | --- |
| AACATCTT | -0.0471 |
| AATGTAGT | -0.203 |
| ATGTCCGA | -0.1 |
| CGAGTAAG | 0.0742 |
| CCTCTTCG | 0.149 |
| GCTCGACC | 0.05 |
| AGGCCAAT | -0.167 |
| AACTATAT | -0.125 |
| ATAGAATC | -0.00466 |
| AAAGAGTC | -0.157 |
| ACACGGAG | 0.128 |
| TCGACGAA | 0.165 |
| CCGGAGAC | 0.102 |
| TGCCCCCA | -0.145 |
| ACGTCTTA | -0.115 |
| ACAGTTAA | -0.0587 |
| CCCAATGA | -0.0499 |
| CCATAGGA | -0.027 |
| CAGAGGCA | 0.128 |
| AAGGTGGC | -0.0561 |
| CCGATGCC | 0.102 |
| CTCCGATA | -0.128 |

Block 4
Substance: PhoQ, residues 284 288 289 292 302 303 AEGLLW
Method: Sort-seq
Measured: YFP reporter
Sample: E. coli
Notes: PhoQ-PhoP variant library
Added: 10 µM Mg2+
Reference: high Mg2+ state
Reading: higher = stronger signaling
| target | fold induction |
| --- | --- |
| PhoP, residues 12 14 15 18 19 NFFVT (Escherichia coli, UniProt P23836) | 13 |
| PhoP, residues 12 14 15 18 19 VGHWL (Escherichia coli, UniProt P23836) | 10.5 |
| PhoP, residues 12 14 15 18 19 LHHYF (Escherichia coli, UniProt P23836) | 5.24 |
| PhoP, residues 12 14 15 18 19 TPWTL (Escherichia coli, UniProt P23836) | 1.26 |

Block 5
Target: Interferon regulatory factor 5, full length, phosphomimetic (IRF5, Homo sapiens, UniProt Q13568-2, residues 1-514, S451D/S453D/S456D/S462D)
Method: protein-binding microarray
Molecule type: double-stranded DNA, one strand shown
Sample: in vitro
Concentration: 940 nM top
Notes: 60-bp whole probe
Added: salmon DNA 0.4 mg/ml
Reference: random background probes
Reading: higher = stronger binding
Constant ends, left off below: GCCTAGCAC … GTCTTGATTCGCTTGACGCTGCTG
| Sequence | fitted relative affinity |
| --- | --- |
| TTTTTTTTTTTTTTTTGGAAGTGCTAG | 1.3 z-score |
| AACCATTTTGTTTTTCATTAGTGCTAG | 1.35 z-score |
| GACGGTTTCGACACTGGAGACGTGCTA | 6.25 z-score |
| TGTGCATGTGTGTTTTCTGCGTGCTAG | -0.0615 z-score |
| TTAGGTTTCGGGACTGTGTTAGTGCTA | 7.73 z-score |
| GACGGTATCGGACTGAGGACGTGCTAG | 2.82 z-score |
| TTAGGTTTCGGCCTCGGTTAGTGCTAG | 9.42 z-score |
| GACGGTTTCGGTGTCGGGACGTGCTAG | 11.7 z-score |
| ATAGGTTTCCTTTTCCTTTAGTGCTAG | 1.98 z-score |
| TTAGGACTCGGGTATCGGTTAGTGCTA | 2.91 z-score |
| TCACTTTTATCCCTGACACTGTGCTAG | 1.53 z-score |
| GACGGACTGGGGTATCGGCACGTGCTA | 0.276 z-score |
| TGAGGTATCCTTTTCCTTTAGTGCTAG | 0.414 z-score |
| GACGGTTTCGGTTATCGGGACGTGCTA | 13.9 z-score |
| TTATAACTGAGACTGGATTAGTGCTAG | 0.145 z-score |
| TGGGGTTCACTCCGGTACCCGTGCTAG | -0.577 z-score |
| CCAGACCCTGATCCATGCATGTGCTAG | -0.414 z-score |
| GAAGATATCGGGACTGGAGACGTGCTA | -0.378 z-score |
| TTAGGACTGTACTATCGGTTAGTGCTA | 0.168 z-score |
| TTAGATTCCAGTTTCCATTAGTGCTAG | 1.55 z-score |
| TTAGAACAGGGGTTTCGATTAGTGCTA | 5.15 z-score |
| TTAGGTATCCTACTGCTCTAGTGCTAG | 0.0279 z-score |
| GACGGTATCGGTGTCGGGACGTGCTAG | 6.68 z-score |
| TTCGGTCTCGGTTTCGGTTAGTGCTAG | 10.3 z-score |

Block 6
Target: Prothrombin, mature alpha-thrombin (F2, Homo sapiens, UniProt P00734)
Method: aptamer microarray, sandwich
Molecule type: DNA with 2'F-ANA
Sample: in vitro
Concentration: 200 nM
Notes: whole 15-mer aptamer, many near background
Added: Cy3 exosite-II aptamer, 400 nM
Reading: higher = stronger binding
Sequence: GGTTGGTGTGGTTGG
| Modification | mean fluorescence intensity [a.u.] |
| --- | --- |
| 2'F-ANA at 2 6 7 8 9 12 13 14 | 149 |
| 2'F-ANA at 2 3 7 9 10 11 12 14 15 | 273 |
| 2'F-ANA at 8 9 13 14 15 | 149 |
| 2'F-ANA at 1 3 11 12 14 15 | 118 |
| 2'F-ANA at 4 5 8 11 12 | 130 |
| 2'F-ANA at 2 3 5 6 7 9 11 12 13 15 | 99.3 |
| 2'F-ANA at 5 8 10 11 12 14 15 | 44.6 |
| 2'F-ANA at 1 2 5 6 10 13 15 | 50 |
| 2'F-ANA at 2 3 4 6 9 12 13 | 561 |
| 2'F-ANA at 2 3 5 6 7 8 15 | 133 |
| 2'F-ANA at 2 9 11 12 13 14 | 158 |
| 2'F-ANA at 1 2 3 6 7 8 9 10 11 12 15 | 88.2 |
| 2'F-ANA at 2 3 6 8 10 14 | 276 |
| 2'F-ANA at 1 2 6 7 11 14 15 | 73.2 |
| 2'F-ANA at 4 5 6 7 12 14 15 | 46.6 |
| 2'F-ANA at 2 3 7 9 13 15 | 654 |
| 2'F-ANA at 4 8 9 11 12 13 14 15 | 89.1 |
| 2'F-ANA at 1 3 4 6 8 12 14 | 134 |
| 2'F-ANA at 1 3 6 7 9 11 12 13 14 | 90.1 |
| 2'F-ANA at 1 3 4 5 8 10 11 12 14 | 88.3 |
| 2'F-ANA at 2 4 9 10 11 12 13 | 94.2 |
| 2'F-ANA at 2 4 5 6 9 10 11 12 13 14 15 | 51.1 |
| 2'F-ANA at 1 5 6 11 12 15 | 90.7 |
| 2'F-ANA at 1 3 4 5 8 9 11 | 58.7 |
| 2'F-ANA at 2 3 4 6 8 10 11 14 15 | 161 |

Block 7
Target: CCNB3, cyclin fold, Cln2 fusion (human)
Method: yeast growth competition, sequencing
Sample: yeast
Notes: weak parent motif
Reference: not given
Reading: higher = stronger binding
Starting sequence: CCP110 docking peptide (human); EKVKRRLDLDIDG; partner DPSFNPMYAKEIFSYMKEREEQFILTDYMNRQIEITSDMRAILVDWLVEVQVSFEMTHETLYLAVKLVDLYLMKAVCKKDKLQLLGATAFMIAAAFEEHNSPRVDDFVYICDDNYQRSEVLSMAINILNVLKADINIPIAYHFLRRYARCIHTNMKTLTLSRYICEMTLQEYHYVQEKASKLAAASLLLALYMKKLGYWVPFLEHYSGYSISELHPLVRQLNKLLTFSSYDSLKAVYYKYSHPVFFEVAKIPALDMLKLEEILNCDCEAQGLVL
| Substitution | normalised enrichment score |
| --- | --- |
| K2A | 0.434 |
| D8A | 0.289 |
| D10A | 0.444 |
| G13A | 0.601 |
| R6A | 0.107 |
| V3A | 0.138 |
| R5K L9F | 1.46 |

Repeated from above (block 5):
| Sequence | fitted relative affinity |
| --- | --- |
| GACGGACTGGGGTATCGGCACGTGCTA | 0.276 z-score |
| TTAGAACAGGGGTTTCGATTAGTGCTA | 5.15 z-score |
| GACGGTATCGGTGTCGGGACGTGCTAG | 6.68 z-score |
| GACGGTTTCGACACTGGAGACGTGCTA | 6.25 z-score |
| TTCGGTCTCGGTTTCGGTTAGTGCTAG | 10.3 z-score |
| TTAGGTATCCTACTGCTCTAGTGCTAG | 0.0279 z-score |
| TTAGATTCCAGTTTCCATTAGTGCTAG | 1.55 z-score |
| GACGGTATCGGACTGAGGACGTGCTAG | 2.82 z-score |
| TCACTTTTATCCCTGACACTGTGCTAG | 1.53 z-score |
| GACGGTTTCGGTTATCGGGACGTGCTA | 13.9 z-score |
